# Measurements of several laboratories.
# Numbered parts are unrelated; each lists some results of a single study.
# UniProt Q9HAZ1, sequence (whole entry, looked up): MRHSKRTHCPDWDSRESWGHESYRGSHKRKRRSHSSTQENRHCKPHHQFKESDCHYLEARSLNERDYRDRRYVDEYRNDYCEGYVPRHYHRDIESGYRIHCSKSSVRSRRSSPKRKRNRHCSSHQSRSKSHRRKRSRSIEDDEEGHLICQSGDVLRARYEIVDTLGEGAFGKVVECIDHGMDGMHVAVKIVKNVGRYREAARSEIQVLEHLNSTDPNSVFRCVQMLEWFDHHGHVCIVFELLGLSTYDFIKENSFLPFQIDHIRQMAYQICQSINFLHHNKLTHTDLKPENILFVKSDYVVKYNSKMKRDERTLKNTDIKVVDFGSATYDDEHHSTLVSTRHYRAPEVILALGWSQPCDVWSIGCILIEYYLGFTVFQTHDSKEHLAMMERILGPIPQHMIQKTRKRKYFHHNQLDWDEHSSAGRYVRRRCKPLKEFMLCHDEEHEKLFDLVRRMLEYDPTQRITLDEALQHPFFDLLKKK
# UniProt P49761, sequence (whole entry, looked up): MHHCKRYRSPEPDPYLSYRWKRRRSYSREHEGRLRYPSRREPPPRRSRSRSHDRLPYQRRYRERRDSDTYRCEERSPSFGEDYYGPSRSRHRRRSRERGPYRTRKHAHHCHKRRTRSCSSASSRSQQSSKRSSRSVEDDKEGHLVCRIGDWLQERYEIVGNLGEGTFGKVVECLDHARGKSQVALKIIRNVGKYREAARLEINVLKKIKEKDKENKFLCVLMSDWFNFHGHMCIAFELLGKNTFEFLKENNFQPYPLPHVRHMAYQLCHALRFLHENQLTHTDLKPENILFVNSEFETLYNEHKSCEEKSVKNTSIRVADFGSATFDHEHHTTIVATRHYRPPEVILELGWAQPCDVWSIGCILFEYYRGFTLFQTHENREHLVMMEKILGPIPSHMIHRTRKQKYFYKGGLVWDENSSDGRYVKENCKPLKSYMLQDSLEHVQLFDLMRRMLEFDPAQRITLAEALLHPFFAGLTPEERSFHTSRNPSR
# UniProt Q8N4C8, sequence (whole entry, looked up): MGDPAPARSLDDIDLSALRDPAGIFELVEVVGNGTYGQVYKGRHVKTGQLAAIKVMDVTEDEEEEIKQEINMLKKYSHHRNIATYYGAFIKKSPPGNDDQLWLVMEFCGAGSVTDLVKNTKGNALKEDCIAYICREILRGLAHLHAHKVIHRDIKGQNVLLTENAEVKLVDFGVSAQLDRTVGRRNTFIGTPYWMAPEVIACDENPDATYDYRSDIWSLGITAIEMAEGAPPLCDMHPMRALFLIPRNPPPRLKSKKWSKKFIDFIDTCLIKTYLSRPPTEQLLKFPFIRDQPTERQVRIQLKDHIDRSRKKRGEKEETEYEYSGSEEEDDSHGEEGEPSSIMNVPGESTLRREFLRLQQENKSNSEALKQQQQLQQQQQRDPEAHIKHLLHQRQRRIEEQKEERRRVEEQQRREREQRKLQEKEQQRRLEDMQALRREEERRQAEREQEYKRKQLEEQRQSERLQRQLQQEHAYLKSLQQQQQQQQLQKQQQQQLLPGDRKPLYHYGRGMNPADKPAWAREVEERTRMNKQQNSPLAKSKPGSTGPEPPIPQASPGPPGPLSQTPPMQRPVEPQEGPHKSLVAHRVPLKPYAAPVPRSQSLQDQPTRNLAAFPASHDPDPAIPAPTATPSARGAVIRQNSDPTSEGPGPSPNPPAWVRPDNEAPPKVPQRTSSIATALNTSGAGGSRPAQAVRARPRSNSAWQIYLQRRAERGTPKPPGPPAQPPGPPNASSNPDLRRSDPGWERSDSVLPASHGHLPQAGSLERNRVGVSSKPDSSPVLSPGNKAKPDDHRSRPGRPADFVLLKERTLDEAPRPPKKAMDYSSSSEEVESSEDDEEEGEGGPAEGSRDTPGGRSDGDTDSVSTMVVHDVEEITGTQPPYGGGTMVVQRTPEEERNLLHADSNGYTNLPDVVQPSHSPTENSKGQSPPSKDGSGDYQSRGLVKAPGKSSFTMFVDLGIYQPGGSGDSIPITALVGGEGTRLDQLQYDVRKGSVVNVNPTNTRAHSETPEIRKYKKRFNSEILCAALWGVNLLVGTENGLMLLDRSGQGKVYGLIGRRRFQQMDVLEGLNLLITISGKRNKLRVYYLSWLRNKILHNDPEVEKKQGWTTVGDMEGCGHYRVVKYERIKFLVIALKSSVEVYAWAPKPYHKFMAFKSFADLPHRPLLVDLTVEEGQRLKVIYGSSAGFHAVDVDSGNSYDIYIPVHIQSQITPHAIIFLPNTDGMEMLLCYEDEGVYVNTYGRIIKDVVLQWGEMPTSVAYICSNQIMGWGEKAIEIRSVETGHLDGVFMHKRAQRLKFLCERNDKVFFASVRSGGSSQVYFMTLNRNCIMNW
# UniProt P08581, sequence (whole entry, looked up): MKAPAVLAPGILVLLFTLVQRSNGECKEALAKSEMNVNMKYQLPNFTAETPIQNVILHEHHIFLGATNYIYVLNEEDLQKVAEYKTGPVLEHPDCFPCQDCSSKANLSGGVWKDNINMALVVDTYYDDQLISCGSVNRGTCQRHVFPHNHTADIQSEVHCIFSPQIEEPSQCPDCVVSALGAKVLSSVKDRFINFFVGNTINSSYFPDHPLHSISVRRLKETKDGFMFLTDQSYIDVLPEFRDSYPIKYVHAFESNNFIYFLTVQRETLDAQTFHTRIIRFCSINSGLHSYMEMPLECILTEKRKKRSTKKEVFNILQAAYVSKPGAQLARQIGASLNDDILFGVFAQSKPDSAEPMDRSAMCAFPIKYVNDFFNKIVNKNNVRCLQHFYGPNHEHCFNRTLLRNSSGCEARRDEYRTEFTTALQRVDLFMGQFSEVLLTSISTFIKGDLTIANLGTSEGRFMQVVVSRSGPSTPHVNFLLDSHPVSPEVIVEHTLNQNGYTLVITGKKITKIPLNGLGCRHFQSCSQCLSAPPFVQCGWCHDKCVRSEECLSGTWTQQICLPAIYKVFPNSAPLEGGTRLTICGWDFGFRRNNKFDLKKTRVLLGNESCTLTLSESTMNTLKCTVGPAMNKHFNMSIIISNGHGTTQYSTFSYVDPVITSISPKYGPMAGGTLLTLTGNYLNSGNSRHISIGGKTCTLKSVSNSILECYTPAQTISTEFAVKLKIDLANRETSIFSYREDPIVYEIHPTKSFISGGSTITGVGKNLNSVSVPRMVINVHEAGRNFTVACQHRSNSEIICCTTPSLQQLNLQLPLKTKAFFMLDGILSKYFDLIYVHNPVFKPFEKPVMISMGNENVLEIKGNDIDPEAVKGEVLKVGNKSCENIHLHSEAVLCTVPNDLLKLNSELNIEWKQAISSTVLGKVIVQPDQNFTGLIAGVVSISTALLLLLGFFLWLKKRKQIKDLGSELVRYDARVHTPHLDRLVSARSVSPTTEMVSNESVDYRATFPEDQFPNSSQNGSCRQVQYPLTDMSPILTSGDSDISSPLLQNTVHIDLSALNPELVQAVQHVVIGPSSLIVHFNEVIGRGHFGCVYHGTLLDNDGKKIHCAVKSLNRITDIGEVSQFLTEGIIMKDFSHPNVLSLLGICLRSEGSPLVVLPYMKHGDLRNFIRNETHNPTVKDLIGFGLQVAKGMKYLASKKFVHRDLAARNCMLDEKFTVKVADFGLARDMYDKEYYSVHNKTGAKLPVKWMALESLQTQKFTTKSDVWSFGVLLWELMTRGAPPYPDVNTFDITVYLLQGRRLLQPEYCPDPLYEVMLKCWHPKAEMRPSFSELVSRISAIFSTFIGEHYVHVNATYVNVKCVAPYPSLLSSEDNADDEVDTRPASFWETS
# UniProt Q13188, sequence (whole entry, looked up): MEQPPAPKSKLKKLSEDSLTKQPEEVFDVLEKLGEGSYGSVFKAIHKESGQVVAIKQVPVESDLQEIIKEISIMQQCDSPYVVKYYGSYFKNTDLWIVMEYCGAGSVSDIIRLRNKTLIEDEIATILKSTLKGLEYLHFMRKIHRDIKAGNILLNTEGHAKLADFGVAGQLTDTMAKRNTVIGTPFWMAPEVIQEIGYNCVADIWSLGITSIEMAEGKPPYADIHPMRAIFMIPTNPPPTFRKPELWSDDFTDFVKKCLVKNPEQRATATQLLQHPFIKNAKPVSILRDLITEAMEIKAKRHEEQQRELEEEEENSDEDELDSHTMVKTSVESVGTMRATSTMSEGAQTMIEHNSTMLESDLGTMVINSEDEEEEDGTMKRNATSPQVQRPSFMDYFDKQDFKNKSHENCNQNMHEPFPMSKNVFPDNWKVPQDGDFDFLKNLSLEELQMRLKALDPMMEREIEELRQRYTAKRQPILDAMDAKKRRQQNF
# UniProt Q14164, sequence (whole entry, looked up): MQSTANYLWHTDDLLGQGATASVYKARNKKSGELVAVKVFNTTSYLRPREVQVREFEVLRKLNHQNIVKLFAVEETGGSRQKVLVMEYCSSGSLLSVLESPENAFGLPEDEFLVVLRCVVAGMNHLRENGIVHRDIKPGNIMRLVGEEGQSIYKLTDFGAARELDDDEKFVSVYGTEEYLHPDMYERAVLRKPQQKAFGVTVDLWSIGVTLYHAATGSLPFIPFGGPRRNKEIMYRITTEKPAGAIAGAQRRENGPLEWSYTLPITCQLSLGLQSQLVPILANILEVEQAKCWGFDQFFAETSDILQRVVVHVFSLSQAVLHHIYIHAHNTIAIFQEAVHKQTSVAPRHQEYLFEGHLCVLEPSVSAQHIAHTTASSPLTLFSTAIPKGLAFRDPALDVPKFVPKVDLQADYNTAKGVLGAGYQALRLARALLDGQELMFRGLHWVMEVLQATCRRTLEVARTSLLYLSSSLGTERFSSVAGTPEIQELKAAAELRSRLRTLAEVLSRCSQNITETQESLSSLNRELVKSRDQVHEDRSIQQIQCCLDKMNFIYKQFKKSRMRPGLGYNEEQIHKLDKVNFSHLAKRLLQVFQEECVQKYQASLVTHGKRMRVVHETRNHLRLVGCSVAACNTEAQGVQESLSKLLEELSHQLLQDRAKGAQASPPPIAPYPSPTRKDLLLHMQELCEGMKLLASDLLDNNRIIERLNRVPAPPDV

# Study 1
# Target: His6 tag
# Technique: AlphaScreen counter screen
# Concentration: concentration not given
SMILES,inhibition
N#CC[C@H](C1CCCC1)n1cc(-c2ncnc3[nH]ccc23)cn1,2.55%
CC(=O)Nc1cn2c(NC(=O)c3cccnc3)c(Cc3ccccc3)nc2cn1,20.9%
O=C(CSc1nnc(-c2ccccc2O)n1-c1ccccc1)Nc1nccs1,-1.7%
Cc1c(CN2CCN(C(=O)[C@H](C)O)CC2)sc2c(N3CCOCC3)nc(-c3cnc(N)nc3)nc12,14.7%
O=C(CSc1ccc2nnc(-c3cccc(F)c3)n2n1)Nc1nccs1,6.9%
CCC(Sc1ccc2nnc(-c3ccc(OC)c(OC)c3)n2n1)C(=O)O (stereo not drawn),-9.85%
O=C(NCc1cccnc1)c1n[nH]c2ccccc12,-6.25%
C=CCN(/C=C1/C(=O)O[C@H](COC)[C@@]2(C)C1=C(O)C(=O)C1=C2[C@H](OC(C)=O)C[C@]2(C)C(=O)CC[C@@H]12)CC=C,11.1%
COc1ccc(C(C#N)=Cc2ccccn2)cc1OC,-43.7%
Cc1ccc(-c2csc3nc[nH]c(=O)c23)cc1,7.05%
CCCCn1nc(C(=O)NCCC(=O)O)c2ccccc2c1=O,0.4%
Cc1cc(O)nc(SCC(=O)Nc2nnc(SCC(N)=O)s2)n1,12.6%

# Study 2
# Compound: Cc1nc2cc3nc(-c4cccs4)cnc3cc2n1C
# Read-out: enzyme activity
# Action: inhibitor
# Concentration: 0.5 µM
# Relative to: control
target,remaining activity [%]
"MINK1 (Homo sapiens, UniProt Q8N4C8)",98.9
"CAMK4 (Homo sapiens, UniProt Q16566)",94.7
"PRKG2 (Homo sapiens, UniProt Q13237)",87.7
"CLK3 (Homo sapiens, UniProt P49761)",114
"CLK4 (Homo sapiens, UniProt Q9HAZ1)",79.2
"GRK4 (Homo sapiens, UniProt P32298)",104
"RPS6KA4 (Homo sapiens, UniProt O75676)",88.4
"PNCK (Homo sapiens, UniProt Q6P2M8)",102
"MAPK1 (Homo sapiens, UniProt P28482)",110
"MET (Homo sapiens, UniProt P08581)",111
"Cyclin-dependent kinase 9, with cyclin K (CDK9, Homo sapiens, UniProt P50750)",110
"MAP2K1 (Homo sapiens, UniProt Q02750)",89.7
"MAPK14 (Homo sapiens, UniProt Q16539)",97.5
"Cyclin-dependent kinase 1, with cyclin A (CDK1, Homo sapiens, UniProt P06493)",102

# Study 3
# Host: mouse
# Matrix: microsomes or S9
# Concentration: 2 µM
# Time: 0.5 h
Structure (SMILES),remaining compound [%]
Cc1c(NC(=O)CCC(=O)N(c2ccccc2)c2ccccc2)c(=O)n(-c2ccccc2)n1C,3.17
COc1ccc(NC(=O)N2CCC3(C2)C(=O)Nc2ccccc23)c(OC)c1 (stereo not drawn),64.6
CCOc1ccc(/N=c2\cc(C)c(C#N)c3[nH]c4ccccc4n23)cc1,0.306
CCC(NC(=O)CCCc1ccc(Cl)cc1)c1ncnn1CC (stereo not drawn),2.04
CC(C)n1nccc1C1CC(=O)Nc2cccc3c2c1cn3Cc1ccccc1 (stereo not drawn),24.7
Cc1c(-c2cnn(C)c2C)nn(-c2ccc(Cl)cc2)c1-c1cnn(C)c1C,0.0553
Cc1ccc(-c2ccc(-n3nc(C)c(S(=O)(=O)Nc4ccc5c(c4)OCCO5)c3C)nn2)cc1,25.2
CC(NC(=O)CN1C(=O)CCn2nc(-c3cn(C)c4ccccc34)cc21)c1ccc2c(c1)OCCO2 (stereo not drawn),2.01
CN(C)Cc1nnc([C@H]2C[C@H](NC(=O)C3CCC(C(C)(C)C)CC3)C2)n1C (stereo partly drawn),42.3
Cc1cc(N(CC(=O)N2CCC(C(N)=O)CC2)S(C)(=O)=O)ccc1Br,60.7

# Study 4
# Structure (SMILES): O=C(N1CCS(=O)(=O)CC1)N1C[C@H](c2ccc(OC(F)(F)F)cc2)C[C@H](c2nc(C3CC3)no2)C1
# Read-out: cell-free assay
# Technique: competition with immobilised ligand
# Concentration: 1 µM
target,remaining binding [%]
"STK26 (Homo sapiens, UniProt Q9P289)",94
"STK35 (Homo sapiens, UniProt Q8TDR2)",100
"KIT (Homo sapiens, UniProt P10721)",100
"PRKCE (Homo sapiens, UniProt Q02156)",97
"HCK (Homo sapiens, UniProt P08631)",100
"IKBKE (Homo sapiens, UniProt Q14164)",100
"MAPK7 (Homo sapiens, UniProt Q13164)",100
"EPHB2 (Homo sapiens, UniProt P29323)",100
"STK3 (Homo sapiens, UniProt Q13188)",100
